Published values gathered from unrelated publications.
Each numbered part is a random draw from the data of one study; scales do not carry over between parts. Positions count from the first letter of the parent shown.

Series 1
Target: CCND1, cyclin fold, Cln2 fusion (human)
Method: yeast growth competition, sequencing
Sample: yeast
Setting: weak parent motif
Baseline: not given
Reading: higher = stronger binding
Starting sequence: ORC1 docking peptide (human); PRARKRLELGNLG; partner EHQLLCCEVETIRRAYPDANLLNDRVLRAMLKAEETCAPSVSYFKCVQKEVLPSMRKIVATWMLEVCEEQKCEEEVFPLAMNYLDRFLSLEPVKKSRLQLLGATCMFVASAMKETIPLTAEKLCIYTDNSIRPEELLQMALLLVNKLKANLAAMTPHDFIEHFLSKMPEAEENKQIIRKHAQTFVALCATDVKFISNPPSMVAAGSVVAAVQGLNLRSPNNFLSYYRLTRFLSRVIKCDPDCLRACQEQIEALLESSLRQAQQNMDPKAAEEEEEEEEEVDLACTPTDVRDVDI
For `PRARKRLELNNLG [G10N]`, “normalised enrichment score” read -0.553.
`PRARKRWELGNLG [L7W]` — result for “normalised enrichment score”: 0.203.
`PRARIRLELGNLG [K5I]`: “normalised enrichment score” -0.0636.
For `PRARKRLELGCLG [N11C]`, “normalised enrichment score” read 0.209.
For `PRAPKRLELGNLG [R4P]`, “normalised enrichment score” read -0.049.
`FRARKRLELGNLG [P1F]` — result for “normalised enrichment score”: -0.57.
For `PRARKRLEAGNLG [L9A]`, “normalised enrichment score” read 0.306.
`PRAQKRLELGNLG [R4Q]` — result for “normalised enrichment score”: -0.169.
Under “normalised enrichment score”, `PRARKRLELGNFG [L12F]` is recorded as 0.148.
`PRARKRLELYNLG [G10Y]`: “normalised enrichment score” 1.3.
`PHARKRLELGNLG [R2H]`: “normalised enrichment score” -0.209.
`PRARPRLELGNLG [K5P]` — result for “normalised enrichment score”: 0.794.
`PRARKRLCLGNLG [E8C]`: “normalised enrichment score” -0.35.
For `PLARKRLELGNLG [R2L]`, “normalised enrichment score” read -0.571.
`PRARKRLELGTLG [N11T]` — result for “normalised enrichment score”: 0.196.
`PRALKRLELGNLG [R4L]`: “normalised enrichment score” -0.0128.

Series 2
Target: Interferon regulatory factor 3, full length, phosphomimetic (IRF3, Homo sapiens, UniProt Q14653, residues 1-427, S386D/S396D/S398D/S402D/T404D/S405D)
Method: protein-binding microarray
Form: double-stranded DNA, one strand shown
Sample: in vitro
Tested at: 2540 nM top
Setting: 60-bp whole probe
Added: salmon DNA 0.4 mg/ml
Baseline: random background probes
Reading: higher = stronger binding
Shared flanks, not repeated: GCCTAGCAC … GTCTTGATTCGCTTGACGCTGCTG
Construct (chain): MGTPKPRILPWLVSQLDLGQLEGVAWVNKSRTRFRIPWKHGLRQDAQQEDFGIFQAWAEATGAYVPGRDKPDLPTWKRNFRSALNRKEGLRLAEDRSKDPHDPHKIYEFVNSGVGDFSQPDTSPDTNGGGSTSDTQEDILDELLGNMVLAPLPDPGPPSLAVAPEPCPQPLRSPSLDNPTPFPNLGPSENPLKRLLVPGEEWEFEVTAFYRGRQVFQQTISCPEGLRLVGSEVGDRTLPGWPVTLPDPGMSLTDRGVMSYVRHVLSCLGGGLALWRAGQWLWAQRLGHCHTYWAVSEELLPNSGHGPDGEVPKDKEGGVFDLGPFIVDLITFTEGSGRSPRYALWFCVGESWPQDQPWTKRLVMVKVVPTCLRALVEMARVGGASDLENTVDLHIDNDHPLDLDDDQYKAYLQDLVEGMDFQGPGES
`CCAGCAGGGTTAGGCTTGCTGTGCTAG` — result for “fitted relative affinity”: -0.805 z-score.
Under “fitted relative affinity”, `TTAGGTTTCGGGTATCGGTTGGTGCTA` is recorded as 4.44 z-score.
Under “fitted relative affinity”, `TTAGATCTCAGTAACGATTAGTGCTAG` is recorded as 0.0176 z-score.
`TTAGGTATGCTACTGCTTTAGTGCTAG`: “fitted relative affinity” -0.685 z-score.
For `GACAGACTGGACTTTCGGGACGTGCTA`, “fitted relative affinity” read 0.0915 z-score.
For `TCATTTTTTGTAATCGAACTGTGCTAG`, “fitted relative affinity” read 1.14 z-score.
`GTCATTATCCTTGTCCCTCCGTGCTAG`: “fitted relative affinity” 2.04 z-score.
`GAGAATTTCCACTTTGACTTGTGCTAG` — result for “fitted relative affinity”: 1.65 z-score.
`GACGGACTGGGACTGGGTACGTGCTAG`: “fitted relative affinity” -0.799 z-score.
`GACGGTTTCGAATATCGGGACGTGCTA` — result for “fitted relative affinity”: 4.25 z-score.
`TAAGGTTTCGGGACTGGGTTAGTGCTA` — result for “fitted relative affinity”: 4 z-score.
For `TTAGGTAACCTTCTCCTTTAGTGCTAG`, “fitted relative affinity” read 2.52 z-score.
For `GACGCTTTCGACTTTCGGGACGTGCTA`, “fitted relative affinity” read 1.72 z-score.
`CTAGGTATCGGTATCGGTTAGTGCTAG`: “fitted relative affinity” 5.31 z-score.
`TTAGATTTCGGGACTAGATTAGTGCTA`: “fitted relative affinity” 1.49 z-score.
`GACGGTTTCCTTCTCCCGACGTGCTAG`: “fitted relative affinity” 10.2 z-score.
`GACGATATCGGGACTGGAGTCGTGCTA`: “fitted relative affinity” 0.412 z-score.
For `AACTGCTGCCGTCCACCACTGTGCTAG`, “fitted relative affinity” read -0.256 z-score.
`TTAGGTATCCTTATGCTTTAGTGCTAG` — result for “fitted relative affinity”: 3.7 z-score.
`GACGGATTGGACTTTCGGGACGTGCTA` — result for “fitted relative affinity”: 0.416 z-score.
For `TAAGGTATCGGTTTCGGTTAGTGCTAG`, “fitted relative affinity” read 8.72 z-score.
For `TCATCTTTGCTTCACCCACTGTGCTAG`, “fitted relative affinity” read 0.722 z-score.
Under “fitted relative affinity”, `GACGAACTGAGGACTGGAGACGTGCTA` is recorded as -0.292 z-score.
For `TCATACATCTCTCTTAAACTGTGCTAG`, “fitted relative affinity” read 0.532 z-score.
`CTCACCCAGTCCAGACACCCGTGCTAG` — result for “fitted relative affinity”: 0.489 z-score.

Series 3
Target: RNA binding protein fox-1 homolog 2, RRM domain, GST-SBP tag (RBFOX2, Homo sapiens, UniProt O43251-10, residues 100-194)
Method: RNA Bind-n-Seq
Form: RNA
Sample: in vitro
Tested at: 365 nM
Setting: natural RNA segment, single round, ends assumed
Baseline: no-protein control
Reading: higher = stronger binding
Shared flanks, not repeated: GGGAGUUCUACAGUCCGACGAUC … UGGAAUUCUCGGGUGCCAA
Residues (chain): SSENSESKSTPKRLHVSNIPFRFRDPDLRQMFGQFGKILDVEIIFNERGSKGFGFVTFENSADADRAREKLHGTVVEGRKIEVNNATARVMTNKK
`CAAGGCCAUUACAUCCCACAAACCCAAAUACAAAGCAGCUGACUUCCCUGGAUCUUCCCCCCACUCCUCACACCUCACAUGUCCCAGGAGCUGCCUUCAUUCAGGCGGGU`: “RBNS enrichment (R)” 0.645.
`GGUGGUUGGGACUGGAGGUUGUAUAAGGUGUUCUUGGAAGGAAGGGGCAGGAGUUGGAAUUAGUUGGUCCCUACUGUCCCCCAUGAGGUUGUGAACCCCUCCCCCCAACU` — result for “RBNS enrichment (R)”: 1.32.
`AGAGGGCAAAAAGUGGCCUGGGCUCUGUUGGUGUGCGUGUUCCGUGGCGGAGAGAAGAAAAUGGGAAAGACAUCUCACUGGUGCUUUUCUCUUUUGUUUUAGUGCCCCCC`: “RBNS enrichment (R)” 0.414.
`UCUCACUGUUUAAAGAACACACUUUUGAGAUUAUGUGGUCCUAUCCUUGUUUUAAUGAUUAAAAAAAAAAAGACAUUCCAAAUCACAUAAACUUCAGAGGCCUCUGGCUC`: “RBNS enrichment (R)” 0.273.
`GUUUGCCCGUUUCUGAGGUCAGAUGGAUGGAUGUCUGAUGUCUUCCUGUGUUUUCCCUCGAUCUCUCCCCUUGGCCUCCUUUCGCACUCACAUCUUCCCAGGCUGCCUUU` — result for “RBNS enrichment (R)”: 1.57.
`AAGUCCUUAAUUUACAGUGGCCUGUAGCCUGUGGCCGUGGCCGUGGCUGUGGCCUGCUGCCUGCUCAUGAUGAGUGGCCUCUGUUGACUUGUUUCUGGUUCACGUGGGGC` — result for “RBNS enrichment (R)”: 0.48.
`UUGGUGAGCUGCUGGUAUUGCUGAAGGCAGGGUGGACCCCUCACUUGCUUCCUAGUGCACUCGUUCAAUUGGAUUGGGGAGGAGACUGACUGUACUCACGGCUAACUUGA` — result for “RBNS enrichment (R)”: 0.663.
Under “RBNS enrichment (R)”, `GUGAUGUCUUUCAGGGAAGCAGUGUUUGAAAUAGAUAGCGGGUACCUUCCCUGGAUGGAGUCAGGGCGGGGGCACUGUCCUCCACUGCUAGACACCCCCAGAAUGCCUGG` is recorded as 1.25.
`UGUUUCAUUCACUGUGCACUUUGCUCAAAAUUUUAAAAAUACCAAUCACAAGGAUAAUAGAGUAGCCUAAAAUUACUAUUCUUGGUUCUUAUUUAAGUAUGGAAUAUUCA`: “RBNS enrichment (R)” 0.535.
`AAAUAGUAUUUGAAAUAAUACCAGAAAACGGGGACCACAGUACUGUUCGAUGUUUUCAAGUGAGAAAGAGGAAUGUAGUAUGCUUUGGCAUAGUUUGGGAGUGGAGAAUA`: “RBNS enrichment (R)” 0.939.
`GGCUCUGAGUGUCAUCUAUCCAUUGCUGAGGUGGUCUCUAUAGCCUGCUCAAAGUCAAAUACAAACCCAAGAGAAGAAAUGUCUUCUCAAGACUUUGUGUCUAAUGUUUU` — result for “RBNS enrichment (R)”: 0.316.
`GGACCCAAGUUCUAGGUGCACACUUUUGCAAGCUUCCUACAAGCCCAGACUGACUUACACUAACCUAACUGCUCAGUGGCUGUCUAGAGACACUUUAGGAAGAUAAACUG`: “RBNS enrichment (R)” 0.461.

Series 4
Target: ABI1, truncated, D143A, DHFR fusion (Arabidopsis thaliana)
Method: DHFR PCA, deep sequencing
Sample: yeast
Setting: methotrexate growth selection, single substitutions
Added: (+)-ABA 710 µM
Baseline: wild-type fitted maximum
Reading: higher = stronger binding
Starting sequence: PYL1, truncated, DHFR fusion (Arabidopsis thaliana); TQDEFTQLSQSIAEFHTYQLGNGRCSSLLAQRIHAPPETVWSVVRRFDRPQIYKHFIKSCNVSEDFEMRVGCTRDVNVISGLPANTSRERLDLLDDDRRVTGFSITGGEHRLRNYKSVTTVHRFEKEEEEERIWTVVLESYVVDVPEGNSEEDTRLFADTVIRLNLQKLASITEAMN
`S104D` — result for “relative binding score”: 24.5%.
For `F5E`, “relative binding score” read 99.1%.
For `L112E`, “relative binding score” read 14.4%.
`A158S`: “relative binding score” 90.4%.
`D96L`: “relative binding score” 67.4%.
Under “relative binding score”, `T6G` is recorded as 108%.
`T1D`: “relative binding score” 102%.
`F103P` — result for “relative binding score”: -21.4%.
`S63M`: “relative binding score” 105%.
Under “relative binding score”, `D95H` is recorded as 85.7%.
`E128A`: “relative binding score” 107%.
For `E151C`, “relative binding score” read 97.4%.
`D65L` — result for “relative binding score”: 91.6%.
`I57E`: “relative binding score” 6.32%.
